Assay results of several laboratories.
± gives the spread as reported.
ABCG2: Broad substrate specificity ATP-binding cassette transporter ABCG2 (ABCG2, Homo sapiens, UniProt Q9UNQ0)
Chain of UniProt Q9UNQ0 (whole entry, looked up): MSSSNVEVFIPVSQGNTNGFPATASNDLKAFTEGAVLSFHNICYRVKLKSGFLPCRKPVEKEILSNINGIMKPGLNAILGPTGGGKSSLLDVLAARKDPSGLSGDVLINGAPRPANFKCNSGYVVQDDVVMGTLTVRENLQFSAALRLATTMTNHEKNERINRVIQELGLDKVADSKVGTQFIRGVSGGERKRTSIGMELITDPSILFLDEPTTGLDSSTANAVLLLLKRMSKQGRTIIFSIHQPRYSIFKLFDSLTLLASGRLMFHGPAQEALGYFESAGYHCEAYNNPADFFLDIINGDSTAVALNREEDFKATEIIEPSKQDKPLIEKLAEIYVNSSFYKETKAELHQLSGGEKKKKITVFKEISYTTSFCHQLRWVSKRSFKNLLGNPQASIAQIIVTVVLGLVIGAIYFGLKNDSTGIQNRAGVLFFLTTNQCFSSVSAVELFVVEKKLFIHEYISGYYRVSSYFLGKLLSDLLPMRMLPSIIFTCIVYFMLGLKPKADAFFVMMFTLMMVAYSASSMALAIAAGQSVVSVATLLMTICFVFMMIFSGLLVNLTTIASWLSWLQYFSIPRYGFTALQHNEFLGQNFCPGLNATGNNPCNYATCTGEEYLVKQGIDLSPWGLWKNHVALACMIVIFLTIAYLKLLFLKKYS
CYP3A4: Cytochrome P450 3A4 (CYP3A4, Homo sapiens, UniProt P08684)
Chain of UniProt P08684 (whole entry, unmodified, looked up): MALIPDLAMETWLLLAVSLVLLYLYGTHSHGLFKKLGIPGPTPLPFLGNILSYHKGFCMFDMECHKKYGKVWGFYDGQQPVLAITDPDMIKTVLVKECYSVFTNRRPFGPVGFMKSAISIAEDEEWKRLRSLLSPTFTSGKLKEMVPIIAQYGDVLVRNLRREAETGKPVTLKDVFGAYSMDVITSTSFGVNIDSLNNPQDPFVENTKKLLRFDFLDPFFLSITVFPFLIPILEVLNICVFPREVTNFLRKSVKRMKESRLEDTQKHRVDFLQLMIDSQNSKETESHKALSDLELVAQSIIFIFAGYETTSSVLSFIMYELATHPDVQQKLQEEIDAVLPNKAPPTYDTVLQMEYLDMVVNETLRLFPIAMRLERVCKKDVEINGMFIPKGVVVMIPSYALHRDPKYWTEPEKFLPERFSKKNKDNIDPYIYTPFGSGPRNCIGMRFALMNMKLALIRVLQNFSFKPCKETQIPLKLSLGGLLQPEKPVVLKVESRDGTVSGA
CYP2C9: Cytochrome P450 2C9 (CYP2C9, Homo sapiens, UniProt P11712)
Chain of UniProt P11712 (whole entry, looked up): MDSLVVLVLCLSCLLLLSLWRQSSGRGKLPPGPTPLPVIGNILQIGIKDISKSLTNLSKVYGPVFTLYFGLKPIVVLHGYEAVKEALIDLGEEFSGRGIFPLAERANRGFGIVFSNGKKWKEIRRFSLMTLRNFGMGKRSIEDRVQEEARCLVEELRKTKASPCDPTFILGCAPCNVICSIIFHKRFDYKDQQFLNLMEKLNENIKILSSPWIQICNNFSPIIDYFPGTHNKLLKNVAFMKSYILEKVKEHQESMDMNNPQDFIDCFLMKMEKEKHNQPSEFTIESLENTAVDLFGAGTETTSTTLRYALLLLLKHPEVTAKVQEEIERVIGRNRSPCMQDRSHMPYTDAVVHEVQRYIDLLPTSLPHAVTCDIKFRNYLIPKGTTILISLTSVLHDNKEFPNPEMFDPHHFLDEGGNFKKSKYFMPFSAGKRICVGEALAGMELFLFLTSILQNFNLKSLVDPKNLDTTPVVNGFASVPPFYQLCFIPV
CYP2C8: Cytochrome P450 2C8 (CYP2C8, Homo sapiens, UniProt P10632)
Chain of UniProt P10632 (whole entry, looked up): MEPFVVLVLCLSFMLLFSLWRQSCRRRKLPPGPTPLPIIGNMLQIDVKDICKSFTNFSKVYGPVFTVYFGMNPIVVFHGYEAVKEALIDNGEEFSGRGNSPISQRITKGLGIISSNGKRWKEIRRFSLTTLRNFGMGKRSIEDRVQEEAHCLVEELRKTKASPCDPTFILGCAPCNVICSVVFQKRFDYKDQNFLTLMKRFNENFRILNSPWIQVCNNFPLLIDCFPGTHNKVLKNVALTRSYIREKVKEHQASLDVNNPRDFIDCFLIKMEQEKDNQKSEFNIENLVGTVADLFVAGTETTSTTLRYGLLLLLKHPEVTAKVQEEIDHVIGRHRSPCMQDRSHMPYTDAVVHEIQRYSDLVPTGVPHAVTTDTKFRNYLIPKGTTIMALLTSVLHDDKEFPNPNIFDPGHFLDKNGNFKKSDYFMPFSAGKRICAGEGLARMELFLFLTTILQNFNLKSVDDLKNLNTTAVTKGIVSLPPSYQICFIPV
Chain of UniProt P33261 (whole entry, looked up): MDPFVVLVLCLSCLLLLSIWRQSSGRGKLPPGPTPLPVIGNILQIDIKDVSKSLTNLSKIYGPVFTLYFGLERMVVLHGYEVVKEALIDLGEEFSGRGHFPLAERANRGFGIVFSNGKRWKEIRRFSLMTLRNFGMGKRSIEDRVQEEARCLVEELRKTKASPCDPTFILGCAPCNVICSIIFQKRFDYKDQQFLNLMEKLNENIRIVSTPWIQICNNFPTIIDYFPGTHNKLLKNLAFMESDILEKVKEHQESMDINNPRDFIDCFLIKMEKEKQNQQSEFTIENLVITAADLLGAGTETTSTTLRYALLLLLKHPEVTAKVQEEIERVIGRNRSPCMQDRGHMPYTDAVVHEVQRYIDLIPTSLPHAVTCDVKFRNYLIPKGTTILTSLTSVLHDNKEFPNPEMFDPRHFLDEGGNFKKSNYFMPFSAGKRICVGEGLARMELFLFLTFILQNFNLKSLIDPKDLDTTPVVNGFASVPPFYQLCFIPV

`COc1cccc(CCn2c3c(c4c(O)cccc42)C(=O)c2ccccc2-3)c1` gave an inhibition of 100 ± 10% (ABCG2; mitoxantrone efflux, inhibitor, flow cytometry; HEK293 transfected with ABCG2; 10 µM, 30 min, with: mitoxantrone 5 µM; baseline: Ko143 1 µM).
`C=C(C)[C@@H]1CCC(C)=C[C@H]1c1c(O)cc(CCCCC)cc1O` has a half-life of 54.5 h (Cytochrome P450 2C19 (CYP2C19, Homo sapiens, UniProt P33261); human, plasma; arithmetic mean, with: fluconazole 200 mg once daily).
The tissue uptake of `CN[C@@](C)(C[18F])C(=O)O` is reported as 0.4 ± 0.1 %ID/g (SCID mouse A549 xenograft, brain; 120 min, post injection).
`OCc1ncc2n1-c1ccc(Cl)cc1C(c1ccccc1F)=NC2`: “metabolic AUC ratio” 0.391 (CYP3A4; human; oral, 75 mg once daily, day -1, molecular-weight corrected, geometric mean, with: midazolam 7.5 mg; baseline: compound AUC over midazolam AUC).
The inhibition of `CNC(=O)O/N=C/C(C)(C)S(C)(=O)=O` is reported as 6.09% (CYP2C9; inhibitor; human liver microsomes; 10 µM, pH 7.4, with: diclofenac).
With `C[C@]12CCC(=O)C[C@@H]1CC[C@@H]1[C@@H]2CC[C@@]2(C)[C@H]1CC[C@@]2(O)C/C=C/C[C@]1(O)CC[C@H]2[C@@H]3CC[C@H]4CC(=O)CC[C@]4(C)[C@H]3CC[C@@]21C` the Kd was 9.6 µM (CYP3A4; binding, absorbance; pH 7.4).
`CNC(=O)O/N=C/C(C)(C)SC` gave an inhibition of 0.11% (CYP2C9; inhibitor; human liver microsomes; 10 µM, pH 7.4, with: diclofenac).
`Cc1ncc2n1-c1ccc(Cl)cc1C(c1ccccc1F)=NC2` has a Cmax of 14 ± 5.3 ng/mL (CYP3A4; healthy female humans, plasma; oral, dose not given, day 1, probe cocktail alone).
For `C=C[C@H]1CN2CCc3c([nH]c4cccc(OC)c34)[C@@H]2C[C@@H]1/C(=C\OC)C(=O)OC`, the IC50 was greater than 45 µM (CYP2C8; enzyme activity, inhibitor; human, liver microsomes).
For `Cc1ncc2n1-c1ccc(Cl)cc1C(c1ccccc1F)=NC2`, the kslow was 0.022 ± 0.03 s⁻¹ (Cytochrome P450 3A4 (CYP3A4, Homo sapiens, UniProt P08684, C239T/C377A/C468S/C58A/C64M/C98A); ligand, stopped flow; 40 µM, pH 7.4, Cys-less variant).
For `O=C1c2ccccc2-c2c1c1c(O)cccc1n2CCc1ccccc1`, the inhibition was 81 ± 5% (ABCG2; mitoxantrone efflux, inhibitor, flow cytometry; HEK293 transfected with ABCG2; 10 µM, 30 min, with: mitoxantrone 5 µM; baseline: Ko143 1 µM).
`CNC(=O)O/N=C/C(C)(C)[S+](C)[O-]` (centres unmarked) gave an inhibition of 14% (CYP2C9; inhibitor; human liver microsomes; 10 µM, pH 7.4, with: diclofenac).
With `CC[C@@H]1CN2CCc3c([nH]c4cccc(OC)c34)[C@H]2C[C@@H]1/C(=C\OC)C(=O)OC` the IC50 was 36.6 µM (CYP2C8; enzyme activity, inhibitor; human, liver microsomes).
The inhibition of `O=C1c2ccccc2-c2c1c1c(O)cccc1n2CCCc1ccccc1` is reported as 98 ± 25% (ABCG2; mitoxantrone efflux, inhibitor, flow cytometry; HEK293 transfected with ABCG2; 10 µM, 30 min, with: mitoxantrone 5 µM; baseline: Ko143 1 µM).

Some of these lines once more:
`OCc1ncc2n1-c1ccc(Cl)cc1C(c1ccccc1F)=NC2`: “metabolic AUC ratio” 0.391 (CYP3A4; human; oral, 75 mg once daily, day -1, molecular-weight corrected, geometric mean, with: midazolam 7.5 mg; baseline: compound AUC over midazolam AUC).
The inhibition of `CNC(=O)O/N=C/C(C)(C)S(C)(=O)=O` is reported as 6.09% (CYP2C9; inhibitor; human liver microsomes; 10 µM, pH 7.4, with: diclofenac).
